Literature values, collected from citations in different studies.
Compare with care: the assays were run in different laboratories. ± marks the error that the study gave.
Organism: HIV-1

C[C@@H]1CCO[C@H]2Cn3cc(C(=O)NCc4ccc(F)cc4F)c(=O)c(O)c3C(=O)N12 — EC50 (viral replication, lentiviral vector; wild-type integrase): 1.6 ± 0.9 nM
Cn1c(Cn2ccc(C(F)(F)F)c(Oc3cc(Cl)cc(C#N)c3)c2=O)n[nH]c1=O — EC50 (viral replication, MTT; MT-4, RES056 K103N/Y181C): 128 ± 60.6 nM
CC1(C)CC(NC(=O)C(=O)Nc2ccc(Cl)cc2)CC(C)(C)N1 — EC50 (single-cycle viral replication; TZM-bl, HXB2): 6900 ± 900 nM
CC(=O)c1ccc(C)cc1NC(C(N)=O)c1c(Cl)cccc1Cl (stereo not drawn) — EC50 (viral replication): 13 nM
Cc1nc([C@@H](CN)NC(=O)c2ccc(-c3ccc(F)c(F)c3)[nH]2)sc1CO (single isomer, unassigned) — IC50 (viral infection; TZM-bl, HXB2 Env pseudovirus; single-cycle): 3300 ± 300 nM
CC(C)CN(C[C@@H](O)[C@H](Cc1cc(F)cc(F)c1)NC(=O)O[C@H]1C2COC3OCC1C3C2)S(=O)(=O)c1ccc2nc(NC3CC3)sc2c1 (stereo partly drawn) — IC50 (viral replication; including drug-resistant strains): 0.019 nM
CC(C)CN(C[C@@H](O)[C@H](Cc1ccccc1)NC(=O)O[C@H]1CO[C@H]2OCC(F)(F)[C@H]21)S(=O)(=O)c1ccc(N)cc1 — EC50 (viral replication; multidrug resistant strains; range over seven strains): 2 to 20 nM
Cc1nnc(C(=O)NC(C)(C)c2nc(C(=O)NCc3ccc(F)cc3)c(O)c(=O)n2C)o1 — EC50 (viral replication, lentiviral vector; wild-type integrase): 4 ± 2 nM
COc1ccccc1NC(=O)c1ccccc1Sc1ccc([N+](=O)[O-])cc1 — IC50 (viral replication; non-permissive cells expressing APOBEC3G): 6000 nM

For quick reference, copied from above:
Cc1nnc(C(=O)NC(C)(C)c2nc(C(=O)NCc3ccc(F)cc3)c(O)c(=O)n2C)o1 — EC50 (viral replication, lentiviral vector; wild-type integrase): 4 ± 2 nM
